# Results of several laboratories.
# Protocols differ between the studies behind these lines. Values joined by “and” are separate records of one study, mostly repeats; a detail may differ. ± marks the error that the study gave.
# Aminopeptidase N: Aminopeptidase N (Neisseria meningitidis, UniProt Q9JYV4)
# KCNQ4: Potassium voltage-gated channel subfamily KQT member 4 (KCNQ4, Homo sapiens, UniProt P56696)
# Oprd1: Delta-type opioid receptor (Oprd1, Rattus norvegicus, UniProt P33533)
# BCHE: Cholinesterase (BCHE, Homo sapiens, UniProt P06276)
# CPL: CPL (Toxoplasma gondii, UniProt Q6DMN0)
Compound,target,test,system,setting,scale,quantity,value
CC[C@H](C)[C@H](NC(=O)[C@H](CC(N)=O)NC(=O)[C@H](CC(N)=O)NC(=O)[C@@H](N)CCCNC(N)=O)C(=O)N1C[C@@H](n2cc([C]34[CH]5[CH]6[CH]7[CH]3[Fe]6754389%10[CH]4[CH]3[CH]8[CH]9[CH]4%10)nn2)C[C@H]1C(=O)N[C@@H](Cc1csc2ccccc12)C(=O)N[C@@H](CO)C(N)=O (some centres unmarked),"Envelope glycoprotein gp160 (env, Human immunodeficiency virus type 1 group M subtype B, UniProt P35961)",ITC,,"concentration not given, pH 7.4, 25 °C",,binding enthalpy,-14.9 ± 7.5 kcal/mol
N=C(N)NCCCC[C@H](N)C(=O)Nc1ccc2c(CC(N)=O)cc(=O)oc2c1,Aminopeptidase N,"enzyme activity, substrate",,"pH 7.5, 37 °C",,Km,27.7 ± 2.3 µM
O=C(O)COc1ccc(Cl)cc1,"Chloride channel protein (Torpedo marmorata, UniProt P21564, C212S)","macroscopic current, noise analysis",,"20 mM, -140 mV",,lower corner frequency,5.1 Hz
CCN(Cc1ccccc1)C(=O)CCc1nc(CN2CCN(C(=O)Cc3ccc(OC)c(OC)c3)CC2)no1,KCNQ4,"potassium current, whole-cell patch clamp","CHO, stable",10 µM,,activation V1/2,-31.1 mV
CCC[C@H](N)C(=O)Nc1ccc2c(CC(N)=O)cc(=O)oc2c1,Aminopeptidase N,"enzyme activity, substrate",,"pH 7.5, 37 °C",,Km,28.8 ± 0.8 µM
CC[C@H](C)[C@H](NC(=O)[C@H](Cc1c[nH]cn1)NC(=O)[C@H](CCCCNC(=O)[C@@H](NC(=O)[C@H](CCCCN)NC(=O)CSC[C@H](NC(=O)[C@H](Cc1ccccc1)NC(=O)[C@H](CCCCNC(=O)[C@H](CC(C)C)NC(=O)[C@@H]1CCCN1C(=O)[C@H](CCCCN)NC(=O)C[C@@H]1O[C@@H](C)[C@@H](O)[C@@H](O)[C@@H]1O)NC(=O)[C@H](CC(C)C)NC(=O)[C@@H]1CCCN1C(=O)[C@H](CCCCN)NC(=O)C[C@@H]1O[C@@H](C)[C@@H](O)[C@@H](O)[C@@H]1O)C(N)=O)[C@@H](C)CC)NC(=O)[C@@H](NC(=O)[C@H](CCCCN)NC(=O)CSC[C@H](NC(=O)[C@H](Cc1ccccc1)NC(=O)[C@H](CCCCNC(=O)[C@H](CC(C)C)NC(=O)[C@@H]1CCCN1C(=O)[C@H](CCCCN)NC(=O)C[C@@H]1O[C@@H](C)[C@@H](O)[C@@H](O)[C@@H]1O)NC(=O)[C@H](CC(C)C)NC(=O)[C@@H]1CCCN1C(=O)[C@H](CCCCN)NC(=O)C[C@@H]1O[C@@H](C)[C@@H](O)[C@@H](O)[C@@H]1O)C(N)=O)[C@@H](C)CC)C(N)=O,"Fucose-binding lectin PA-IIL (lecB, Pseudomonas aeruginosa, UniProt Q9HYN5)","binding, isothermal titration calorimetry",,divided by fucoside copies,baseline: monovalent fucoside KD over ligand KD,relative potency per fucoside,2.2
C=C(C)C(=O)Oc1ccc(C(C)(C)c2ccc(OC(=O)C(=C)C)cc2)cc1,"Aromatase (CYP19A1, Homo sapiens, UniProt P11511)","inhibitor, tritiated water release",JEG-3,18 h,,LOEC,100 µM
Cc1cc(O)cc(C)c1CC(N)C(=O)NC1CCNc2c(C)cc(Cc3ccccc3)cc21 (centres unmarked),Oprd1,"GTPγS binding, agonist",C6 cells expressing DOR,,baseline: DPDPE at 10 µM,maximal stimulation,71%
Cc1cc(O)cc(C)c1C[C@H](N)C(=O)N1Cc2ccccc2C[C@H]1CN[C@@H](Cc1ccccc1)C(=O)N[C@@H](Cc1ccccc1)C(N)=O,Oprd1,"adenylyl cyclase activity, agonist",C6 cells expressing Oprd1,"concentration not given, with: forskolin",baseline: forskolin control,remaining activity,65 ± 10%
Nc1nc2c([C@@H]3O[C@@H]4COP(=O)(O)O[C@H]5[C@@H](O)[C@H](n6cnc7c(=O)[nH]c(N)nc76)O[C@@H]5COP(=O)(O)O[C@H]4[C@H]3O)snc2c(=O)[nH]1,"Cyclic di-GMP phosphodiesterase RocR (rocR, Pseudomonas aeruginosa, UniProt Q9HX69)","cyclic dinucleotide hydrolysis, substrate, HPLC",,,,product P1 share,58%
O=C(O)/C=C/c1cc(O)cc(O)c1,BCHE,"enzyme activity, inhibitor, Ellman",,250 µg/mL,,inhibition,63.4%
S=C(NCc1ccccn1)NCc1ccccn1,BCHE,"enzyme activity, inhibitor, Ellman",,500 µg/mL,,inhibition,62.3%
CC(=O)NCC(=O)N[C@@H](C)C(=O)N[C@@H](CCCCNP(=O)(O)O)C(=O)NCC(=O)NCC(N)=O,"Phospholysine phosphohistidine inorganic pyrophosphate phosphatase (LHPP, Homo sapiens, UniProt Q9H008)",substrate,,"100 µM, pH 7.8",,initial velocity,2.72e-08 M/s
CN1CCCCC1Cn1c2ccccc2c2cc(C(=O)c3cccc4ccccc34)ccc21 (centres unmarked),"Cannabinoid receptor 1 (CNR1, Homo sapiens, UniProt P21554)","cAMP inhibition, agonist, BRET",HEK293 expressing CNR1,with: forskolin,baseline: forskolin alone,Emax,51.8%
CC(=O)N[C@@H](Cc1c[nH]c2ccccc12)C(=O)N[C@@H](CCC(=O)O)C(=O)N[C@@H](Cc1c[nH]cn1)C(=O)N[C@@H](CC(=O)O)C(=O)Nc1ccc2c(C)cc(=O)oc2c1,"Caspase-9 (CASP9, Homo sapiens, UniProt P55211)",substrate,,"concentration not given, full-length",,Vmax,38.8 ± 1.35 RFU/min
N[C@@H](Cc1ccc(C(=O)NCCc2cccc3ccccc23)cc1)C(=O)N1Cc2ccccc2C[C@H]1C(=O)N[C@@H](Cc1ccccc1)C(=O)N[C@@H](Cc1ccccc1)C(=O)O,Oprd1,"binding, [3H]DSLET displacement",rat brain membranes,,baseline: DPDPE,relative affinity,5 to 8 fold
CC[C@H](C)[C@H]1C(=O)O[C@H](C(C)C)C(=O)N(C)[C@@H]([C@@H](C)CC)C(=O)O[C@H](C(C)C)C(=O)N(C)[C@@H]([C@@H](C)CC)C(=O)O[C@H](C(C)C)C(=O)N1C,"Heat shock protein HSP 90-beta (HSP90AB1, Homo sapiens, UniProt P08238)",CETSA,Hs-578T,"20 µM, 1 h",,thermal stabilization temperature,> 61 °C
CC(=O)NC(Cc1ccc(Br)c(Cl)c1)C(=O)N[C@@H](C)C(=O)N1CCC[C@H]1C(=O)N1CCC[C@H]1C(=O)N[C@@H](CCC(=O)O)C(=O)N[C@@H](Cc1c[nH]cn1)C(=O)N[C@@H](CO)C(=O)N[C@H](C(=O)N[C@@H](C)C(N)=O)[C@@H](C)OP(=O)(O)O (some centres unmarked),"Protein kinase C alpha type (PRKCA, Homo sapiens, UniProt P17252)",,,10 µM,,inhibition,1.58 ± 0.08%
CC(C)P(=S)(NP(=[Se])(C(C)C)C(C)C)C(C)C,"Alpha-amylase (Bacillus subtilis, UniProt P00691)",fluorescence quenching,,"concentration not given, pH 6.8, 298 K",,ΔG of binding,-4.52 kcal/mol
CC(C)CCN(CCCc1ccccc1)c1nc(C#N)nc(N2CCOCC2)n1,CPL,"enzyme activity, inhibitor",,,baseline: human over Toxoplasma IC50,selectivity ratio,0.2
CC(=O)N[C@H]1C(O)O[C@H](CO)[C@@H](O[C@@H]2O[C@H](CO)[C@H](O)[C@H](O)[C@H]2O)[C@@H]1O (some centres unmarked),"Galectin-3 (LGALS3, Homo sapiens, UniProt P17931)","binding, isothermal titration calorimetry",,,,–ΔH,13.7 kcal/mol
CC(C)CCN(Cc1ccc(F)cc1)c1nc(C#N)nc(N2CCOCC2)n1,CPL,"enzyme activity, inhibitor",,,baseline: human over Toxoplasma IC50,selectivity ratio,0.94 and 0.9
CCCCC/C=C\C/C=C\C/C=C\C/C=C\CCCC(=O)NC(CO)C(=O)O (stereo in doubt),KCNQ4,"potassium current, two-electrode voltage clamp",,10 µM,,maximal conductance,no effect

# Repeated from above:
Compound,target,test,system,setting,scale,quantity,value
CC(C)CCN(CCCc1ccccc1)c1nc(C#N)nc(N2CCOCC2)n1,CPL,"enzyme activity, inhibitor",,,baseline: human over Toxoplasma IC50,selectivity ratio,0.2
CCCCC/C=C\C/C=C\C/C=C\C/C=C\CCCC(=O)NC(CO)C(=O)O (stereo in doubt),KCNQ4,"potassium current, two-electrode voltage clamp",,10 µM,,maximal conductance,no effect
